Measured values pooled from the literature.
Each line is one published result; not all experiments were run side by side.
Organism: Mycobacterium tuberculosis

O=C(NCCNCCO)c1cn(Cc2ccc(F)cc2)c2cc(Cl)c(OCc3ccc(C(F)(F)F)cc3)cc2c1=O  MIC90: 3 to 6 µM
COC(=O)[C@@H](CCCNC(=O)OC(C)(C)C)NC(=O)c1ccc(NCc2ccc3nc(N)nc(N)c3c2Cl)cc1  MIC90 (pptT knockdown without ATc): < 0.1 µM
Cc1cc(Nc2nc(N3CCC(c4ccncc4)C3)ncc2F)[nH]n1 (centres unmarked)  MIC90 (microbial growth; H37RV): 0.328 µM
COc1ccc(NC(=O)CN(C)S(=O)(=O)c2cc(C)cnc2N)cn1  MIC90 (microbial growth; H37RV; 10 days): > 100 µM
CN1C/C(=C\c2ccccc2)C2=NN(C(N)=S)[C@H](c3ccccc3)[C@@H]2C1  MIC90 (microbial growth; H37RV): 160 µg/mL
O=C(NCCOCCO)c1cn(Cc2ccccc2)c2cc(OCc3ccc(C(F)(F)F)cc3)c(Cl)cc2c1=O  MIC90: > 125 µM
Cc1nc2ccc(CN(C)c3ccc(C(=O)N[C@@H](CCC(=O)O)C(=O)O)s3)cc2c(=O)[nH]1  MIC90 (microbial growth; H37RV): > 100 µM
Cc1cnc(N)c(S(=O)(=O)N(C)CC(=O)Nc2ccc(C#N)c(Cl)c2)c1  MIC90 (microbial growth; H37RV; 10 days): > 100 µM
CC1=NN(c2ccc(C(=O)O)cc2)C(=O)C1=Cc1ccc(-c2cc(C)c(C)cc2[N+](=O)[O-])o1  MIC90 (microbial growth; H37RV): 45 µM
CN[C@@H]1[C@H](O)[C@H](NC)[C@H]2O[C@]3(O)[C@H](O[C@@H]2[C@H]1O)O[C@H](C)C[C@H]3NC(=O)Cc1cc(Cl)ccn1  MIC90 (MDR and XDR isolates): 1.8 µg/mL
CCc1nc2ccc(Cl)cn2c1C(=O)NC/C=C(\C)CC/C=C(\C)CCC=C(C)C  MIC90 (microbial growth; H37RV): > 10 µM
O=C(NCCNCCO)c1cn(Cc2cccc(Br)c2)c2cc(Cl)c(OCc3ccc(C(F)(F)F)cc3)cc2c1=O  MIC90: 3 to 5 µM
CC(C)(C)OC(=O)NCCC[C@H](NC(=O)c1ccc(NCc2ccc3nc(N)nc(N)c3c2Cl)cc1)C(=O)O  MIC90 (microbial growth; H37RV): 0.07 µM
COc1cc(NC(=O)CN(C)S(=O)(=O)c2cc(C)cnc2N)ccn1  MIC90 (microbial growth; H37RV; 10 days): > 100 µM
C#CCN(Cc1ccc2[nH]cnc(=O)c2c1)c1ccc(C(=O)N[C@@H](CCC(=O)O)C(=O)O)cc1  MIC90 (microbial growth; H37RV): > 100 µM
COc1ccc(NC(=O)CN(C)S(=O)(=O)c2cc(C)cnc2N)cc1Cl  MIC90 (H37Rv): > 100 µM
O=C(NCCNCCO)c1cn(Cc2ccccc2)c2cc(OCc3ccc(C(F)(F)F)cc3)c(Cl)cc2c1=O  MIC90: 0.4 µM
Cc1cnc(N)c(S(=O)(=O)N(C)CC(=O)Nc2ccc(N3CCOCC3)c(Cl)c2)c1  MIC90 (microbial growth; H37RV; 10 days): > 100 µM
Cc1[nH]c(=O)c(CNC(=O)c2ccc(C(F)(F)F)nc2)c2c1CCCC2  MIC90 (microplate Alamar Blue; H37Rv): 1.2 µg/mL
CCOC(=O)CC[C@@H](NC(=O)c1ccc(N(C)Cc2ccc3[nH]c(C)nc(=O)c3c2)s1)C(=O)OCC  MIC90 (microbial growth; H37RV): 80.3 µM
CCn1cc(C(=O)NCCNCCO)c(=O)c2cc(OCc3cccc(C(F)(F)F)c3)c(Cl)cc21  MIC90: 1 to 2 µM
Cc1cnc(N)c(S(=O)(=O)N(C)CC(=O)Nc2ccc(=O)n(C)c2)c1  MIC90 (microbial growth; H37RV; 10 days): > 100 µM
CN[C@@H]1[C@H](O)[C@H](NC)[C@H]2O[C@]3(O)[C@H](O[C@@H]2[C@H]1O)O[C@H](C)C[C@H]3NC(=O)Cc1ccc(F)cn1  MIC90 (MDR and XDR isolates): 3.8 µg/mL

For quick reference, copied from above:
O=C(NCCNCCO)c1cn(Cc2ccccc2)c2cc(OCc3ccc(C(F)(F)F)cc3)c(Cl)cc2c1=O  MIC90: 0.4 µM
Cc1cnc(N)c(S(=O)(=O)N(C)CC(=O)Nc2ccc(N3CCOCC3)c(Cl)c2)c1  MIC90 (microbial growth; H37RV; 10 days): > 100 µM
Cc1[nH]c(=O)c(CNC(=O)c2ccc(C(F)(F)F)nc2)c2c1CCCC2  MIC90 (microplate Alamar Blue; H37Rv): 1.2 µg/mL
CCOC(=O)CC[C@@H](NC(=O)c1ccc(N(C)Cc2ccc3[nH]c(C)nc(=O)c3c2)s1)C(=O)OCC  MIC90 (microbial growth; H37RV): 80.3 µM
